Earlier results, collected from citations in different studies.
Each numbered part shows a few of the values that one paper quotes.
Chain of UniProt P06241 (whole entry, unmodified, looked up): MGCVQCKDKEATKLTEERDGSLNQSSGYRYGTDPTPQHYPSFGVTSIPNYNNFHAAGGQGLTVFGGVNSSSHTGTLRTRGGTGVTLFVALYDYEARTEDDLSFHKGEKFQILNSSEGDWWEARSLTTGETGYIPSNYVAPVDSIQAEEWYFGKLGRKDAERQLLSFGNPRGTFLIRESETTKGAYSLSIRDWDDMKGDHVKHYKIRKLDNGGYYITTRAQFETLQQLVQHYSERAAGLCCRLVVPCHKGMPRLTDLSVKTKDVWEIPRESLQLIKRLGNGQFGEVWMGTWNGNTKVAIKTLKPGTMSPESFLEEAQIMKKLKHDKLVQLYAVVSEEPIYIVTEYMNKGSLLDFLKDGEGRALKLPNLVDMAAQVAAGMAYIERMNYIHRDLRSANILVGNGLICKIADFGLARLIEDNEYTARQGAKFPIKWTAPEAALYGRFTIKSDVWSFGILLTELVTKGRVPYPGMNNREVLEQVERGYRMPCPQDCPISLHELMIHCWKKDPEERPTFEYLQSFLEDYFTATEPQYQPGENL

Sample 1 — Molecule: melittin
organism | strain | notes | MIC
Escherichia coli | ATCC 25922 | literature value | 12.5 µM
Enterococcus faecalis | KCTC 3511 | literature value | 3.1 µM
Enterobacter sp. | KCTC 2625 | – | < 3.1 µM

Other studies, line by line
B1: CCL4; sequence looked up; chain APMGSDPPTACCFSYTARKLPRNFVVDYYETSSLCSQPAVVFQTKRSKQVCADPSESWVQEYVYDLELN
B2: CX3CL1, human; sequence looked up; chain QHHGVTKCNITCSKMTSKIPVALLIHYQQNQASCGKRAIILETRQHRLFCADPKEQWVKDAMQHLDRQAAALTRNGGTFEKQIGEVKPRTTPAAGGMDESVVLEPEATGESSSLEPTPSSQEAQRALGTSPELPTGVTGSSGTRLPPTPKAQDGGPVGTELFRVPPVSTAATWQSSAPHQPGPSLWAEAKTSEAPSTQDPSTQASTASSPAPEENAPSEGQRVWGQGQSPRPENSLEREEMGPVPAHTDAFQDWGPGSMAHVSVVPVSSEGTPSREPVASGSWTPKAEEPIHATMDPQRLGVLITPVPDAQAATRRQAVGLLAFLGLLFCLGVAMFTYQSLQGCPRKMAGEMAEGLRYIPRSCGSNSYVLVPV
Molecule | target or system | assay | test system | conditions | quantity | value
B1 (CCL4) | US28 F14A | binding, radioligand competition | – | – | Kd | 18.4 nM
Ac-APPIPPPRRKR-NH2 (N-acetyl, C-amide) | Tyrosine-protein kinase Fyn, SH3 domain (FYN, Homo sapiens, UniProt P06241) | binding | peptide | – | entropic term −TΔS | 1.2 kcal/mol
B2 (CX3CL1, human) | US28 T12A | binding, radioligand competition | – | – | Kd | 0.4 nM
pegcetacoplan | – | – | New Zealand white rabbit | subcutaneous, 1, 7, 28 mg/kg/day daily, 6 months | NOAEL | > 28 mg/kg/day
CCL3 | US28 E13A | binding, radioligand competition | – | – | Kd | 1.2 nM
human CCL11 | CCR3 D19A mutant | – | – | – | IC50 | 6.76 nM

A few entries again (other studies, line by line):
Molecule | target or system | assay | test system | conditions | quantity | value
pegcetacoplan | – | – | New Zealand white rabbit | subcutaneous, 1, 7, 28 mg/kg/day daily, 6 months | NOAEL | > 28 mg/kg/day
